Measured values from different studies.
Every numbered part comes from another study and shows a few of its results, in no order.
Chain of UniProt Q9UEE5 (whole entry, looked up): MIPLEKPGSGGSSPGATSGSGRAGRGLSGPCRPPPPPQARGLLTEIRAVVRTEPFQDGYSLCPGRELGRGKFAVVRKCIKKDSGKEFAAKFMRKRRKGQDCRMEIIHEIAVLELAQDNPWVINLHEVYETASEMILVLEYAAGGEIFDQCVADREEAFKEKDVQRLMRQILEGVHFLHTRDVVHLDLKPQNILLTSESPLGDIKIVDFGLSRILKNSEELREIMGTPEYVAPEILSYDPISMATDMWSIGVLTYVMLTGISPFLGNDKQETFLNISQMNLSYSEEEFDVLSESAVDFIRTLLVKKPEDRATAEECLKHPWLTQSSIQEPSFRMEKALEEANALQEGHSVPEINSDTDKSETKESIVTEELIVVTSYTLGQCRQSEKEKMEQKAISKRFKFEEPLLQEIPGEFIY
Chain of UniProt P78362 (whole entry, looked up): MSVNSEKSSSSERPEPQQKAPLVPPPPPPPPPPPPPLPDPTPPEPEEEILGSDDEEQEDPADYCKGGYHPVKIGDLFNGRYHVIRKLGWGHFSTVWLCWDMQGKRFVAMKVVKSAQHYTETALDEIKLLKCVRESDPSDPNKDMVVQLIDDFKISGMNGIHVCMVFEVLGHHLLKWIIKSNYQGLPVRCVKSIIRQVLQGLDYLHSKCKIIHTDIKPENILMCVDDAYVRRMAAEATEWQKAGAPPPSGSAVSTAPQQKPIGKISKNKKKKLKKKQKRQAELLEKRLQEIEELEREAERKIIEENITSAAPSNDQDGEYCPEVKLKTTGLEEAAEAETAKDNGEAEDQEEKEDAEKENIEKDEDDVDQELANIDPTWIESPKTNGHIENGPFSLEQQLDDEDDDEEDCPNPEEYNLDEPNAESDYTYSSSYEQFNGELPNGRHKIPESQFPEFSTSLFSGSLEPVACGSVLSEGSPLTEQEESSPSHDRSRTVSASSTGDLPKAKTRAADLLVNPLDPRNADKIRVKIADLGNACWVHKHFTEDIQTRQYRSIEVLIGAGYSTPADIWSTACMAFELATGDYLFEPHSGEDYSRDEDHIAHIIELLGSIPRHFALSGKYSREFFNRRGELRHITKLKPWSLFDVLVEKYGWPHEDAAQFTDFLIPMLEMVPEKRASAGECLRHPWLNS
Chain of UniProt P68400 (whole entry, looked up): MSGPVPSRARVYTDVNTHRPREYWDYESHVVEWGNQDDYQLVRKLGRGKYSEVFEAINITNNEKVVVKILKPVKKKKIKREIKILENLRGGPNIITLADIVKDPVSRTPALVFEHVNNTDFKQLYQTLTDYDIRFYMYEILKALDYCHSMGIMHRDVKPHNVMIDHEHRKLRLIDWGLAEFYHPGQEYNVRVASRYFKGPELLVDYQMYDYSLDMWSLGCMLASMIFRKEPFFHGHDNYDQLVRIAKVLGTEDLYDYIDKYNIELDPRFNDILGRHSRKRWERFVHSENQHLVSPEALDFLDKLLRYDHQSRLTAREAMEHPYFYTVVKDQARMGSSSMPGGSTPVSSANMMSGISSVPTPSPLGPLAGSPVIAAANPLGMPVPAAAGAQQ

Series 1
Target: PABPC1L2, full length, GST fusion (mouse, UniProt A0ABA7IW68)
Method: RNAcompete
Form: RNA
Medium: in vitro
Concentration: 20 nM
Setting: 7-mer, probes averaged, single round
Reference: mean of 7-mers
Reading: higher = stronger binding
Construct (chain): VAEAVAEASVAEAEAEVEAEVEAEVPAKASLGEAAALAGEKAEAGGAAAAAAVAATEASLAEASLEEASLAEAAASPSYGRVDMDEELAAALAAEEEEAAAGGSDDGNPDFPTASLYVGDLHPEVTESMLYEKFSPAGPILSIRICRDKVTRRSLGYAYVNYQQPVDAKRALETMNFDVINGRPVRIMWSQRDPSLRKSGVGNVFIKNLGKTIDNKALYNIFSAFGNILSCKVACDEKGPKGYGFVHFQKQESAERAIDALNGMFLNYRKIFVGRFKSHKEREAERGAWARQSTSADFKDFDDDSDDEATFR
`CCGCUAU` has a 7-mer Z-score of -0.331.
For `CAUCUAA`, the 7-mer Z-score was -0.0337.
For `GGUAAGU`, the 7-mer Z-score was -0.0808.
`GGACGAU` gave a 7-mer Z-score of 0.129.
For `AAAACGG`, the 7-mer Z-score was 4.15.
`UUGGAAG` gave a 7-mer Z-score of 0.124.
For `UCCUUCU`, the 7-mer Z-score was -0.378.
The 7-mer Z-score of `AUUCAAU` is reported as -0.0047.

Series 2
Compound: CS(=O)(=O)c1cc(C2(NC(=O)c3cncc4c3cnn4-c3ccc(F)cc3)CC2)ccn1
Observed: cell-free assay
Method: competition with immobilised ligand
Concentration: 1 µM
STK17A (Homo sapiens, UniProt Q9UEE5) — remaining binding: 84%.
For CSNK2A1 (Homo sapiens, UniProt P68400): remaining binding read 64%.
The remaining binding was 100% (SRPK2 (Homo sapiens, UniProt P78362)).

Series 3
Target: Serine/threonine-protein kinase NLK (NLK, Homo sapiens, UniProt Q9UBE8)
Observed: enzyme activity
Action: inhibitor
Concentration: 0.5 µM
Reference: control
Target sequence (Q9UBE8 1-527): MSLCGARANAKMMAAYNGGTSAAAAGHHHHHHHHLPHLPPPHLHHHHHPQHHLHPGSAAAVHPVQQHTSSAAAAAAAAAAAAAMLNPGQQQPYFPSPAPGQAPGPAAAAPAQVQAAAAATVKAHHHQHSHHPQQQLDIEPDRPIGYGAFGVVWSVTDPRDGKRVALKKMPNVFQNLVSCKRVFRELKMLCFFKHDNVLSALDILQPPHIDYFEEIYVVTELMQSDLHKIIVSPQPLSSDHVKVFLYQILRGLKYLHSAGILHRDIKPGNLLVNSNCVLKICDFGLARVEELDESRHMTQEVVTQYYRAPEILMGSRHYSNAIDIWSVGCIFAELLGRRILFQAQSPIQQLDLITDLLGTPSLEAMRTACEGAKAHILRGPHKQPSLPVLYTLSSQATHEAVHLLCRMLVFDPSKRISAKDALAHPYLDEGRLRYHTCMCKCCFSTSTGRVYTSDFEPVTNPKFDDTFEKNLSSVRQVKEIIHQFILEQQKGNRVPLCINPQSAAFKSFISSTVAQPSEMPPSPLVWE
With Nc1nc(Nc2ccc(S(N)(=O)=O)cc2)nn1C(=O)c1c(F)cccc1F the remaining activity was 86%.
CC#CC(=O)Nc1cc2c(Nc3ccc(F)c(Cl)c3)ncnc2cn1 has a remaining activity of 99.7%.
Nc1nccc(-c2c(-c3ccc(F)cc3)ncn2C2CCNCC2)n1 gave a remaining activity of 12.1%.
CCc1[nH]c(-c2ccc(OC)cc2)nc1-c1ccncc1 gave a remaining activity of 103%.

Series 4
Target: Centromere-binding protein 1, full length, N-terminal tag (CBF1, Saccharomyces cerevisiae, UniProt P17106, residues 1-351)
Chain of UniProt P17106 (whole entry, looked up): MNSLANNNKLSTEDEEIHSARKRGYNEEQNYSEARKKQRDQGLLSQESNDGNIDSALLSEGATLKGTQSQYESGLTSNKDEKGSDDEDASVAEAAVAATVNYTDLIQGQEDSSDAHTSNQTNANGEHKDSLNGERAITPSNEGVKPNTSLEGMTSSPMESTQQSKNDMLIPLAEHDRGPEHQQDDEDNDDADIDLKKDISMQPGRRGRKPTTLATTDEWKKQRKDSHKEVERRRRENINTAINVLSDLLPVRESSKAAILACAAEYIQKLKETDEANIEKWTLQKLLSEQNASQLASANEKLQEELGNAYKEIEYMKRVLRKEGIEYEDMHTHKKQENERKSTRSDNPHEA
Method: protein-binding microarray
Form: double-stranded DNA, one strand shown
Medium: in vitro
Concentration: 0.8 µM
Setting: whole 60-bp probe, no competitor
Reading: higher = stronger binding
Constant ends, left off below: … GTCTTGATTCGCTTGACGCTGCTG
With `CTACTGCTGTCATAACGCGTGGTGTTGTGGTTTTTC` the fluorescence intensity was 578 a.u.
The fluorescence intensity of `CTACCGATTTAAATTCACCTGGTAACTTTCCTATTC` is reported as 529 a.u.
`CTATCACTATGCACTGATGACGTCACTGTCAATTTC` has a fluorescence intensity of 580 a.u.
`CTACTTATCGTTCATCACATGTTATTTTTTTCATTC` gave a fluorescence intensity of 2290 a.u.
The fluorescence intensity of `CTAAATTCCAAGACTCTCACCTGCGACTGGTCGTTC` is reported as 471 a.u.
`GAACTTCAAACAAACCACGTGATGGTCTACACGTAG` has a fluorescence intensity of 11600 a.u.
For `CCTAACTACTATAATGGTGATATATAGCTTCGTACA`, the fluorescence intensity was 503 a.u.
`GAAATGATATAATATCACCTCACGCATGCCTATTAG` gave a fluorescence intensity of 555 a.u.

Some of these lines once more (series 1):
`CCGCUAU` has a 7-mer Z-score of -0.331.
For `CAUCUAA`, the 7-mer Z-score was -0.0337.
For `UCCUUCU`, the 7-mer Z-score was -0.378.
`GGACGAU` gave a 7-mer Z-score of 0.129.
